Published values pooled from the literature.
Numbered parts are unrelated; each lists some results of a single study. Substitutions count along the parent as printed.

Study 1
Target: ABI1, truncated, D143A, DHFR fusion (Arabidopsis thaliana)
Method: DHFR PCA, deep sequencing
Matrix: yeast
Notes: methotrexate growth selection, single substitutions
With: (+)-ABA 0.11 µM
Baseline: wild-type fitted maximum
Reading: higher = stronger binding
Starting sequence: PYL1, truncated, DHFR fusion (Arabidopsis thaliana); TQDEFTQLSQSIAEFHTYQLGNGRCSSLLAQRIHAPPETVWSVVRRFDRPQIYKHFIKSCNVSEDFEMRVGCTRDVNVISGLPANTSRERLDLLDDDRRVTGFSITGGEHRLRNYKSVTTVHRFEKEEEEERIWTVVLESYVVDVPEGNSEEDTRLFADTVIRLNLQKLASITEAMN
Under “relative binding score”, `S104D` is recorded as -7.28%.
Under “relative binding score”, `F5E` is recorded as 7%.
For `D95H`, “relative binding score” read -11.7%.
For `P50C`, “relative binding score” read -0.636%.
For `E151C`, “relative binding score” read 25.1%.
`E128A`: “relative binding score” 36.3%.
`I57E`: “relative binding score” -7.82%.
Under “relative binding score”, `S27N` is recorded as 45.9%.
`D95F` — result for “relative binding score”: -14.2%.
Under “relative binding score”, `N114W` is recorded as -6.66%.
For `T17R`, “relative binding score” read 2.93%.
`A158S`: “relative binding score” -6.47%.
For `T1D`, “relative binding score” read 35.7%.
Under “relative binding score”, `H110A` is recorded as 28.4%.
`V44G` — result for “relative binding score”: -1.3%.

Study 2
Target: RNA binding protein fox-1 homolog 2, RRM domain, GST-SBP tag (RBFOX2, Homo sapiens, UniProt O43251-10, residues 100-194)
Method: RNA Bind-n-Seq
Form: RNA
Matrix: in vitro
Tested at: 365 nM
Notes: natural RNA segment, single round, ends assumed
Baseline: no-protein control
Reading: higher = stronger binding
Target sequence (chain): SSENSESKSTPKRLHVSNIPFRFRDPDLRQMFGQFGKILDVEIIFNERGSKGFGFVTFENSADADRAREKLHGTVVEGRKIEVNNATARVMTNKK
`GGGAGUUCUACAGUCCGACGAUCAAAAGAAAUUUGAUGCCCAGAUAAUAUAUUAGGCACUACUGAUUUUUUAGUUAAAUUGAUGCACUACACUUUUGAUGUUUGAAGUUACAAACCUGUAAUUUUUUUGUAAAUGGAAUUCUCGGGUGCCAA` — result for “RBNS enrichment (R)”: 0.509.
For `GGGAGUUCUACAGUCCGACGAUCUACAGGCGUACAACAAAAAGCGGGUAGAAAUAAGAAUGUCACACUCCCGGGGCAUGGUAAGCCUGAGUUUGCCCUAACACCUCACUUAUCAGCUCUAUUACGACCCUUCUUGGAAUUCUCGGGUGCCAA`, “RBNS enrichment (R)” read 0.279.
`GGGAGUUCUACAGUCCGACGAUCGGUUCAGAGUUAGCAGCUGUUUCUAAGGAAAUGCUGUUCAGAUGCCUCCUAACUUUUAUAGUUAUUUUGUUUUAUAUUUCUGAAUUCUUGUAUCAGAUCCAAAGCUCUAUUGGAAUUCUCGGGUGCCAA`: “RBNS enrichment (R)” 0.455.
`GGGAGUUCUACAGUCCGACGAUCAGAUCAAAACCAUUCUGUAAAAUCUUUGUUGUUUAAUUAAAUGUGCCGUUAUUUACCCCUGAUGUUAUUUAUGACUAUGUGCCGAUUCCUGCUCGGGCUGUUUGCUGUUGUGGAAUUCUCGGGUGCCAA` — result for “RBNS enrichment (R)”: 1.95.
For `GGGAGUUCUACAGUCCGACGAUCGUUGGUUUGGGUUUUUUUUUUUCUUUUUCUACUUUUAAAGUAUUUAAAUGCAAUUAUUUUUCUGCCAAUGGUAUAGCCUAUGCCUAUGCUUGAGAAGUGUAGGUCUACUGUGGAAUUCUCGGGUGCCAA`, “RBNS enrichment (R)” read 0.349.
`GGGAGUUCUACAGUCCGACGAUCUCUAUUUUCGGCAAUAAGGUAAGGACGACAGUGUUUUGAGUGUCCUCCUUUUCUAUAAGUGCUUUUUUUCUGUUGAAAGAGGUGAUAUUAUAAGGUUUUUUGAAAUUGUGUGGAAUUCUCGGGUGCCAA` — result for “RBNS enrichment (R)”: 1.16.
`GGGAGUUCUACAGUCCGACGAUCUACUGUUUCAGAGUUGAGAGUUGGUGGUGCAAAUAUGUAUAUAAUGAACUGUAUUUUUACAAUGAUCGCCGCAUGACUAUUUCACACCCUUUUUAUACUCCAUAUCUGUCUGGAAUUCUCGGGUGCCAA`: “RBNS enrichment (R)” 2.6.
`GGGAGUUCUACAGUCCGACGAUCGCCUUAUCAAGUGUCUUCCAUCAUGGAUUCAUUACAGCUUAAUCAAAAUAACGCCCCAGAUACCAGCCCCUGUAUGGCACUGGCAUUGUCCCUGUGCCUAACACCAGCGUUGGAAUUCUCGGGUGCCAA` — result for “RBNS enrichment (R)”: 0.363.
Under “RBNS enrichment (R)”, `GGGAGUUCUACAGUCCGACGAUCAGUGUACCUCCUUGAUGGCAGCAGCUAGGCCAUGAGUUCCCAACACACAGUGAUUGACCUGGUCCCACUCCAUUGGGGAAGAAAAGAUACAGAUGUUUGGUUUGGCCAGCUGGAAUUCUCGGGUGCCAA` is recorded as 0.377.
For `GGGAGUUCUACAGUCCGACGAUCUUGUAAAUAAAAUCUUAACAUUUUGGGUCUGUUUUUUCAUGCUUUGCUUUUUAAUUAUUAUUAUUAUUUUUUUUACAUUAGGACAUUUUAUGUGACAACUGCCAAAAAAGUGGAAUUCUCGGGUGCCAA`, “RBNS enrichment (R)” read 1.16.
`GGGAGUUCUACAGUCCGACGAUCUCUGAGGAUUACAGCUCUGCCCAGGCCCUUUCUACUUUCCCUGCCUGCCUCCCUCCCCCUGCUAGAAGUAGUUUCUGAUUUCCCUGAAUGAAAGAUAGUGAUCUUUUAGGUGGAAUUCUCGGGUGCCAA` — result for “RBNS enrichment (R)”: 1.56.
`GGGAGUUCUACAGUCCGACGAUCUUGGUCCCUUCCUGAGCCCUGCUCCAGUUGUCCCUAAGUGCCUUCCCUUUUGUCUGGACUGACCUGACCCAUGAUGUUUGGACUACAUGUAGGUGAGCGCCCGCAUUGCAUGGAAUUCUCGGGUGCCAA` — result for “RBNS enrichment (R)”: 8.53.

Study 3
Target: JUNB, bZIP domain (human)
Method: DHFR protein complementation
Matrix: yeast
Notes: single substitutions, most at no-binding floor
Baseline: wild-type JUN-FOS pair
Reading: higher = stronger binding
Starting sequence: JUN, bZIP domain (human); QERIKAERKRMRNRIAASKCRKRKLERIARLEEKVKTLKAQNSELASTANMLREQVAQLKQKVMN; partner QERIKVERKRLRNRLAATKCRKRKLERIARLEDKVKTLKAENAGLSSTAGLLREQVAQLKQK
`K39T` gave a binding fitness of -0.92 natural log.
The binding fitness of `T37V` is reported as -1.03 natural log.
With `T48E` the binding fitness was -0.85 natural log.
The binding fitness of `L31R` is reported as -1.51 natural log.
For `Q55V`, the binding fitness was -1.48 natural log.
The binding fitness of `N42E` is reported as -1.4 natural log.
`K34D` gave a binding fitness of -1.14 natural log.
For `L31T`, the binding fitness was -1.57 natural log.
For `I28R`, the binding fitness was -1.4 natural log.
The binding fitness of `A40D` is reported as -1.25 natural log.
For `T48I`, the binding fitness was -1.08 natural log.
The binding fitness of `R30V` is reported as -0.99 natural log.
`Q55H` has a binding fitness of -1.38 natural log.
`A46G` has a binding fitness of -1.42 natural log.
The binding fitness of `E54T` is reported as -1.32 natural log.
With `L45Q` the binding fitness was -1.5 natural log.

Study 4
Target: Histone acetyltransferase KAT6A, winged helix 2, GST fusion (KAT6A, Homo sapiens, UniProt Q92794, residues 85-181)
Method: protein binding microarray
Form: double-stranded DNA, one strand shown
Matrix: in vitro
Tested at: not given
Notes: 8-mer, flanks averaged, mean of 2 arrays, mostly near background
Baseline: not given
Reading: higher = stronger binding
Residues (chain): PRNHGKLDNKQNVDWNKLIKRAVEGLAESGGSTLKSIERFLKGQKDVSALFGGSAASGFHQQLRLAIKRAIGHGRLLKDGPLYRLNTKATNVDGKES
`ACAATACA` gave an E-score of -0.0399.
`CGCAATTA` has an E-score of -0.00696.
The E-score of `AGCCCTCG` is reported as -0.0532.
`GCTGACCC` gave an E-score of -0.0297.
`GTGAATAA` gave an E-score of -0.0491.
`GAGGCCCC` gave an E-score of 0.00905.
`GCGGGCGA` gave an E-score of 0.199.
For `CATCGCCG`, the E-score was 0.164.
With `GTCGCGCA` the E-score was 0.0184.
The E-score of `AGATTACG` is reported as -0.0131.
For `GTTTGGCA`, the E-score was 0.00469.
`CCTGGCTC` has an E-score of 0.143.
For `GTTAGGGA`, the E-score was 0.0189.
`GAATGACC` has an E-score of -0.141.
`GGGAAAAA` has an E-score of -0.0561.
With `ACTATTTC` the E-score was -0.115.
With `CAGCTGAG` the E-score was -0.000455.
The E-score of `AGCACCAT` is reported as -0.179.
`CCGCGGGA` gave an E-score of 0.0811.
With `AACCATCC` the E-score was 0.0887.
With `ATAGTGAC` the E-score was -0.107.
For `ATGTATGG`, the E-score was -0.0565.
The E-score of `AACGAGAT` is reported as 0.067.

Study 5
Target: CCNE2, cyclin fold, Cln2 fusion (human)
Method: yeast growth competition, sequencing
Matrix: yeast
Notes: strong parent motif
Baseline: not given
Reading: higher = stronger binding
Starting sequence: RBL2 docking peptide (human); STTRRRLFVENDS
`STTRRRAFVENDS [L7A]`: “normalised enrichment score” 1.44.
`STTRRRLVVENDS [F8V]`: “normalised enrichment score” 0.463.
`STTRRRLFVEYDS [N11Y]`: “normalised enrichment score” 4.45.
`STTRRRLFVENDL [S13L]` — result for “normalised enrichment score”: 4.35.
For `STTRRRLTVENDS [F8T]`, “normalised enrichment score” read 0.535.
`STTRRRLFVEGDS [N11G]` — result for “normalised enrichment score”: 4.55.
`STTRRFLFVENDS [R6F]`: “normalised enrichment score” 0.885.
`STTRRRLFEENDS [V9E]`: “normalised enrichment score” 3.74.
Under “normalised enrichment score”, `STTRRRLFVENGS [D12G]` is recorded as 4.28.
`STTIRRLFVENDS [R4I]` — result for “normalised enrichment score”: 2.76.
`STTRRRLFVENDT [S13T]` — result for “normalised enrichment score”: 4.15.
For `STTRRRLFVENDF [S13F]`, “normalised enrichment score” read 5.22.
For `LTTRRRLFVENDS [S1L]`, “normalised enrichment score” read 4.38.
`STTRRRLFVENSS [D12S]`: “normalised enrichment score” 3.94.
Under “normalised enrichment score”, `STTRRYLFVENDS [R6Y]` is recorded as 0.393.
For `STTRKRLFVENDS [R5K]`, “normalised enrichment score” read 1.16.
`SATRRRLFVENDS [T2A]`: “normalised enrichment score” 3.79.
Under “normalised enrichment score”, `STTRRRLFVFNDS [E10F]` is recorded as 1.89.
`STTRRPLFVENDS [R6P]`: “normalised enrichment score” -0.593.
For `STTRKRLLVENDS [R5K F8L]`, “normalised enrichment score” read 0.0378.
`STTRSRLFVENDS [R5S]`: “normalised enrichment score” 0.527.
For `STHRRRLFVENDS [T3H]`, “normalised enrichment score” read 4.76.
Under “normalised enrichment score”, `STTRRRLFVENYS [D12Y]` is recorded as 3.51.
For `SMTRRRLFVENDS [T2M]`, “normalised enrichment score” read 4.1.
`STTRRRYFVENDS [L7Y]`: “normalised enrichment score” -0.409.

For quick reference, copied from above (study 5):
`STTRRRLFVENDL [S13L]` — result for “normalised enrichment score”: 4.35.
`STTRRPLFVENDS [R6P]`: “normalised enrichment score” -0.593.
`SATRRRLFVENDS [T2A]`: “normalised enrichment score” 3.79.
`STTRRRLFVENSS [D12S]`: “normalised enrichment score” 3.94.
`STTRRRLFEENDS [V9E]`: “normalised enrichment score” 3.74.
`STTRSRLFVENDS [R5S]`: “normalised enrichment score” 0.527.
For `LTTRRRLFVENDS [S1L]`, “normalised enrichment score” read 4.38.
`STTRRRLFVENDT [S13T]` — result for “normalised enrichment score”: 4.15.
For `STHRRRLFVENDS [T3H]`, “normalised enrichment score” read 4.76.
For `STTRKRLLVENDS [R5K F8L]`, “normalised enrichment score” read 0.0378.
Under “normalised enrichment score”, `STTRRRLFVENYS [D12Y]` is recorded as 3.51.
For `STTRRRLTVENDS [F8T]`, “normalised enrichment score” read 0.535.
Under “normalised enrichment score”, `STTRRYLFVENDS [R6Y]` is recorded as 0.393.
